Assay results of several laboratories.
Numbered parts are unrelated; each lists some results of a single study. Substitutions count along the parent as printed.

Set 1
Target: Ras GTPase-activating protein-binding protein 1, full length (G3BP1, Homo sapiens, UniProt Q13283)
Chain of UniProt Q13283 (whole entry, looked up): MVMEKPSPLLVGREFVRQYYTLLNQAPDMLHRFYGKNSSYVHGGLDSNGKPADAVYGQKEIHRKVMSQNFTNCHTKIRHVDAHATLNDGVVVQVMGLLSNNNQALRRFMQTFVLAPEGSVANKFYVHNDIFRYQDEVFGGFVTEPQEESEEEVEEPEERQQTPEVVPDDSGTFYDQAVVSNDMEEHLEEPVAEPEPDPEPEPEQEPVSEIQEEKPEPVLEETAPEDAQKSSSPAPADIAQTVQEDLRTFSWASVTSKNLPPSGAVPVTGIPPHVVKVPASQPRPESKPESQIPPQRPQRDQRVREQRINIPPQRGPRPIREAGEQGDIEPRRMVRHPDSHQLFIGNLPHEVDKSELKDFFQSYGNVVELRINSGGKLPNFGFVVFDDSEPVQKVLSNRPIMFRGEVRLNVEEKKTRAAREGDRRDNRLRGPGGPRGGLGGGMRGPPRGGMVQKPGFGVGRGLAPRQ
Technique: RNA Bind-n-Seq
Form: RNA
Medium: in vitro
Tested at: 200 nM
Setting: whole 134-nt RNA, ends assumed
With: 150 mM LiCl
Relative to: input library
Reading: higher = stronger binding
Each molecule: 7-deaza-guanosine replaces G
Constant ends, left off below: GGGAGUUCUACAGUCCGACGAUC … UGGAAUUCUCGGGUGUCAAGG
Strand | log2 enrichment
UGUUUUAAGGUUGCCAACUUUGCAACAAUGGAAGAUGAAGAAGAGCUAGAAGAGCGUCCUCACAAGGACUGGGAUGAGAUCAUUCCAGAG | -1.47
GCAGGAAGUAAAAACAAAUGGAAAUGCUUCGGAUAGUGGAAGGGGUGGGGGUUGCUAAGGAAAGGGUGGGAUGGGAGUGGGUAAAGAGUU | 0.236
UCCUGUGCUACACAUCGUAUGUACCGAAUCGGGCCCCCCGGGCCCCCCGGGGCCCCCCGGAAAGUAUUAUGUUACGCCGUUCGGAUCUGC | -1.17
UGGGAGGUGGAUUUUGUUUAUUUUUUUAGCUCACUUCCAGGGGUGGGAAUUUUUUUUUAAUAUGUGUCAUGAAUAAAGUUGUUUUUGAAA | 0.0521
UGAACAGCUCUGCGCUUUUUGUUACUGUGGGGAAAAAAGUUCCUUAGGACAAGGAGACUUAAAACAAUUCAGAAUAACGCCUGGAUUUAU | -2.02
CUGUGCUACACAUCGUAUGUACCGAAUCGGGGAAAAAAGGGGAAAAAAGGGAAAAAAGGGGAAAGUAUUAUGUUACGCCGUUCGGAUCUG | 0.487
UGGCCCUGGUGGCAUGCGGGGAGGAAGAGGUGGCCUCAUGGGUCGUGGUGGUCCCGGUGGAAUGUUCAGAGGUGGCCGUGGUGGAGACAG | 0.257
UCCUGUGCUACACAUCGUAUGUACCGAAUCGGGGUUUUUUGGUUUUUUGGUUUUUUGGGAAAGUAUUAUGUUACGCCGUUCGGAUCUGCA | 0.29
UCCUGUGCUACACAUCGUAUGUACCGAAUCGGGGUUUUUGGGGUUUUUGGGUUUUUGGGAAAGUAUUAUGUUACGCCGUUCGGAUCUGCA | 0.922
UGCGAGGUGGAUUUUGUUUAUUUUUUUAGCUCAUUUCCAGGGGUGGGAAUUUUUUUUUAAUAUGUGUCAUGAAUAAAGUUGUUUUUGAAA | 0.202

Set 2
Target: RNA binding protein fox-1 homolog 2, RRM domain, GST-SBP tag (RBFOX2, Homo sapiens, UniProt O43251-10, residues 100-194)
Technique: RNA Bind-n-Seq
Form: RNA
Medium: in vitro
Tested at: 365 nM
Setting: natural RNA segment, single round, ends assumed
Relative to: no-protein control
Reading: higher = stronger binding
Constant ends, left off below: GGGAGUUCUACAGUCCGACGAUC … UGGAAUUCUCGGGUGCCAA
Target sequence (chain): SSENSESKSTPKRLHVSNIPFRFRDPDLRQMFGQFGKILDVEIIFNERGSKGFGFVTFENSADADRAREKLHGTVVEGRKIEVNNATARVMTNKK
Strand | RBNS enrichment (R)
UAUGGUUUGCACUUUUUAAUCUAAAUUCAUCCCUUCUAAGUGAGGUUUGCUCAUACAGCAUUUGGAUACUAAGCCAUUAUUUGCCGCUGUUGGUACUUAUACAAAGAAAA | 0.887
GAUAGAAACUGGGACGGAUUCAAGUCACAUGCACGCGGAUAGCAGUAAGCCACACACCUGCCACUUAGCCAGAAUGCCCAGGAUCGCGUUGGUCACUGUUAUUUGCCUAC | 3.24
CUAGUGAGUGGAGGCCAGGGAUGCUGCCCUGCCACUGCCAUUGGGCCUCAGAGCUCAGUCUUGCCAAGGUGGAGAAAUUCUGGUCGAAGAGGUUGACCGGUAGACUGAAG | 0.564
AAGAUUGUCUGCUUACUCAUUUUUAAAAAUUAAAGAAAUGAACAAUCAGUGUGGCUAUUCCUAGCAAGGUGGUAUUCGUUGGGUUUUUUGUCCUGGUUUUAUUCCCUCCA | 0.466
UCUCCUGAAGGACCUGGGUCCCUUCCCCCGGAGCCUGUGCCUUGGGGCAGGGGAACCCCAAAGUAAGGUGCCAUGGUGUUUGGCACUCAAGAUUUAGCUCACCCUUGAAC | 0.22
CCUCAUCCUCCUACCCUGUACUCCCACCAAACCAUGGUCCUUUAAGGCACGCUCCUGUCCUCCUCAUUGCCCAGCAGUAGGGAGGGGCAGGGGUAAGGGGACCUGAGGAU | 0.198
CUACAUACAGCUGCCAUGCCCUUUCUGAACAAAGGCUGGAGUUGUCCAAUUGCAGUUCUUCUUCGCAUAGAAAUGCAAUUGGAAUAUUUACAAAUCAUAAUCAACAGAGC | 0.327
AUUGUAAAAAGUUUUAGUUUUGAUGAGUUGUGAGUUUACCUUGUAUACUGUAGGCACACUUUGCACUGAUAUAUCAUGAGUGAAUAAAUGUCUUGCCUACUCACGUCUCA | 1.03
CAAACAACCGAAGCUGUGAAAAAGGUCGAAGAAACUGUGGCAACUUCAGAGAUGGAUGAAAGUUUGGAGUGUGCAGGUGCGCAAUCAUUACCAGCUGAGAAGCUCUCCGA | 0.454
AGAUGUGGGAAGGAUAUAGCUCGGGGCUUAGUGAGGAAGAUGGACACCCAUGGUUCAAAGUCUGGUGUUGACCCUAGAUAGCUAUGUGACUGUGGGUGGACCAUCUCCCC | 0.74
UAUUAGAUACUCACAAUCAAAGUCUGAUUUAAUGUAAAAAUUAAUAAAAUGUGUCUAUACUUAGCAUUGUAAGGAAAAACAUCAUUACCAUAGAUAUUUAUUAUAUUUGA | 0.883
AAGUUUGAGAUAAGUCUUUUUUUGAAUUUUUUUUUCUCUGAUCUGCUUAAAAUGCAGAUUGGCUUUAAAAAGAAAAGAAAACAAACACACAUAUGCAAUGUUUUAAGGUC | 0.346

Set 3
Target: CCNB2, cyclin fold, Cln2 fusion (human)
Technique: yeast growth competition, sequencing
Medium: yeast
Setting: weak parent motif
Relative to: not given
Reading: higher = stronger binding
Starting sequence: CDKN1B docking peptide (human); PSACRNLFGPVDH
Change | normalised enrichment score
S2T | -0.134
H13R | 0.0628
C4I | 0.451
G9E | 0.0946
N6F | -0.435
C4F | -0.049
P10I | 0.319
P1M | -0.0989
H13G | -0.377
G9R | -0.108
N6Y | -0.357
A3I | 0.332
D12S | -0.171
C4E | -0.217
H13Y | 0.0524

Set 4
Target: Interferon regulatory factor 5, full length, phosphomimetic (IRF5, Homo sapiens, UniProt Q13568-2, residues 1-514, S451D/S453D/S456D/S462D)
Technique: protein-binding microarray
Form: double-stranded DNA, one strand shown
Medium: in vitro
Tested at: 940 nM top
Setting: 60-bp whole probe
With: salmon DNA 0.4 mg/ml
Relative to: random background probes
Reading: higher = stronger binding
Constant ends, left off below: GCCTAGCAC … GTCTTGATTCGCTTGACGCTGCTG
Strand | fitted relative affinity [z-score]
ACCATTTTGGTTTTCTCTATGTGCTAG | 1.53
CCAACTCGCCTTTTTTGTTGGTGCTAG | 0.763
TCAATAATTTTTTTCTAACTGTGCTAG | 0.639
TTCTCTTTCACTACTCCATTGTGCTAG | 3.58
CTTTGCCTCATCTTGCAGGTAGTGCTA | 0.23
GACGGACTGCTGTTCCTGACGTGCTAG | -0.58
ACAAGTTTTTATTTTCTGAAGTGCTAG | 0.915
TTAGGTTCCCTTTTCCTTAAGTGCTAG | 1.03
TTGGGTATCGACACTGGGTTAGTGCTA | 4.17
CCCATTCTCAGCCCTGCGCATGTGCTA | 0.931
TCAAATCTCTTTCCTTAACTGTGCTAG | 1.22
TTAGGGCTCGGTCTCGGTTAGTGCTAG | 1.79
GACGGTTTCAGGACTGGGGACGTGCTA | 2.38
TTAGGTATCGACTTTCCGTTAGTGCTA | 5.17
GACGATATCAGACTGGACACGTGCTAG | -0.305
GGTGTCTAGGTTAGGGATTAGTGCTAG | -0.375
CCCTGCGTGGTCTCGAGCTGGTGCTAG | -0.535
TACTCTACAGGGTTTCACTTTGTGCTA | 2.1
CTAGGACTGCTTTTCCTTTAGTGCTAG | -0.00223
CCCTTTCTCAACCTCCAGAGGTGCTAG | 1.54

Repeated from above (set 2):
Strand | RBNS enrichment (R)
UCUCCUGAAGGACCUGGGUCCCUUCCCCCGGAGCCUGUGCCUUGGGGCAGGGGAACCCCAAAGUAAGGUGCCAUGGUGUUUGGCACUCAAGAUUUAGCUCACCCUUGAAC | 0.22
AAGAUUGUCUGCUUACUCAUUUUUAAAAAUUAAAGAAAUGAACAAUCAGUGUGGCUAUUCCUAGCAAGGUGGUAUUCGUUGGGUUUUUUGUCCUGGUUUUAUUCCCUCCA | 0.466
CUACAUACAGCUGCCAUGCCCUUUCUGAACAAAGGCUGGAGUUGUCCAAUUGCAGUUCUUCUUCGCAUAGAAAUGCAAUUGGAAUAUUUACAAAUCAUAAUCAACAGAGC | 0.327
CAAACAACCGAAGCUGUGAAAAAGGUCGAAGAAACUGUGGCAACUUCAGAGAUGGAUGAAAGUUUGGAGUGUGCAGGUGCGCAAUCAUUACCAGCUGAGAAGCUCUCCGA | 0.454
GAUAGAAACUGGGACGGAUUCAAGUCACAUGCACGCGGAUAGCAGUAAGCCACACACCUGCCACUUAGCCAGAAUGCCCAGGAUCGCGUUGGUCACUGUUAUUUGCCUAC | 3.24
UAUUAGAUACUCACAAUCAAAGUCUGAUUUAAUGUAAAAAUUAAUAAAAUGUGUCUAUACUUAGCAUUGUAAGGAAAAACAUCAUUACCAUAGAUAUUUAUUAUAUUUGA | 0.883
